Assay results from different studies.
Protocols differ between the studies behind these lines. Numbers after ± are the reported error.

Compound | assay | test system | setting | Cmax
CC(C)=CCC[C@](C)(O[C@@H]1O[C@H](CO)[C@@H](O)[C@H](O)[C@H]1O)[C@H]1CC[C@]2(C)[C@@H]1[C@H](O)C[C@@H]1[C@@]3(C)CC[C@H](O)C(C)(C)[C@@H]3[C@@H](O[C@@H]3O[C@H](CO)[C@@H](O)[C@H](O)[C@H]3O[C@@H]3O[C@@H](C)[C@H](O)[C@@H](O)[C@H]3O)C[C@]12C |  | Sprague Dawley rat, male, plasma | oral, 45 mg/kg, in frozen ginseng extract | 500 ± 120 ng/mL
O=C(O)/C=C/c1ccc(O)c(O)c1 | UPLC-MS/MS | Wistar rat, microcirculation dysfunction model, plasma | oral, 100 mg/kg Salvia miltiorrhiza stem-leaf extract FS | 4.69 ± 0.68 ng/mL
CCC[C@@]1(CCc2ccccc2)CC(O)=C([C@H](CC)c2cccc(NS(=O)(=O)c3ccc(C(F)(F)F)cn3)c2)C(=O)O1 |  | Sprague Dawley rat, male, plasma | oral, 5 mg/kg, long-chain triglyceride formulation | 1940 ± 204 ng/mL
C=CC(=O)Nc1cc(Nc2nccc(-c3cn(C)c4ccccc34)n2)c(OC)cc1N(C)CCN(C)C |  | Sprague-Dawley rat, male, plasma | oral, 10 mg/kg | 51.5 ± 10.7 ng/mL
COc1ccc(/C=C\c2cc(OC)c(OC)c(OC)c2)cc1OP(=O)(O)O |  | Sprague-Dawley rat male, plasma | intravenous, 28 mg/kg | 50200 ± 12000 ng/mL
Cc1cc(-c2cc(OC(=O)c3ccccc3)ccc2Cl)cc2nnc(Nc3ccc(OCCN4CCCC4)cc3)nc12 |  | Long Evans rat, plasma | topical, 1% | not detected
C=CC(=O)N1CCC[C@@H](n2nc(-c3ccc(Oc4ccccc4)cc3)c3c(N)ncnc32)C1 |  | Sprague-Dawley rat, male, plasma | oral, 55 mg/kg | 413 ng/mL
CC(C)=CCC[C@](C)(O[C@@H]1O[C@H](CO)[C@@H](O)[C@H](O)[C@H]1O)[C@H]1CC[C@]2(C)[C@@H]1[C@H](O)C[C@@H]1[C@@]3(C)CC[C@H](O)C(C)(C)[C@@H]3[C@@H](O[C@@H]3O[C@H](CO)[C@@H](O)[C@H](O)[C@H]3O)C[C@]12C |  | Sprague Dawley rat, male, plasma | oral, 25 mg/kg, in frozen ginseng extract | 500 ± 120 ng/mL
Cc1nc2cccc(OCC(C)(C)C(=O)NC(C)C)c2c(N)c1C(=O)O |  | female Sprague-Dawley rat, plasma | oral gavage, 10 mg/kg, day 7 | 32.7 ± 9.7 ng/mL
NC(=O)c1cnc2[nH]ccc2c1N[C@@H]1[C@@H]2CC3C[C@H]1C[C@@](O)(C3)C2 |  | Japanese, moderate hepatic impairment, plasma | oral, 150 mg single dose, mean | 674 ng/mL
O=C(/C=C/c1ccc(O)c(O)c1)O[C@H](Cc1ccc(O)c(O)c1)C(=O)O | UPLC-MS/MS | Wistar rat, microcirculation dysfunction model, plasma | oral, 100 mg/kg Salvia miltiorrhiza stem-leaf extract FS | 75.3 ± 8.79 ng/mL
Cc1cc(Nc2cc3ncccc3c(N[C@@H]3C[C@H]4CC[C@@H](C3)N4CCC#N)n2)n[nH]1 |  | Sprague-Dawley rat, male, plasma | oral, 100 mg/kg/day, last day of 13 weeks | 8.55 ng/mL
CCCCCCCC/C=C\CCCCCCCC(=O)N[C@H](CCCCN)C(=O)O.Cl |  | Sprague-Dawley rat male, brain | intraperitoneal, 27.5 mg/kg, total bound plus unbound | ~4.5 µM
N#C[C@]1(CO)O[C@@H](n2cnc3c(=O)[nH]c(N)nc32)C[C@@H]1O |  | male Sprague-Dawley rat, plasma | oral, 1 mg/kg, with: entecavir 1 mg/kg | 60.1 ± 16.1 ng/mL
CCN1CCN(c2ccc(Nc3cc(N(C)C(=O)Nc4c(Cl)c(OC)cc(OC)c4Cl)ncn3)cc2)CC1 | LC-MS/MS | juvenile male Crl:WI(Han) rats, plasma | oral gavage, 0.3 mg/kg/day, postnatal day 17 | 8.12 ng/mL
O=C(O)C[C@H](O)C[C@H](O)/C=C/c1c(C2CC2)nc2ccccc2c1-c1ccc(F)cc1 |  | male Sprague-Dawley rat (wild type), plasma | oral, 5 mg/kg | 758 ± 317 ng/mL
O=C(O)C[C@H](O)C[C@H](O)/C=C/c1c(C2CC2)nc2ccccc2c1-c1ccc(F)cc1 |  | male Sprague Dawley rat, NASH, plasma | oral, 2.5 mg/kg, geometric mean, with: vehicle | 3.1 µM

Compound | assay | test system | setting | Cmax
C=CC(N)CCC(=O)O (stereo not drawn) |  | male Sprague-Dawley rat, plasma | oral, 1.0 mg/kg, formulation 6, with: BCH 200 mg/kg | 1220 ± 73 ng/mL
O=C(O)Cc1ccccc1Nc1c(Cl)cccc1Cl |  | rat, plasma | oral, 10 mg/kg, with: sesamin 10 mg/kg | 3500 ± 2300 ng/mL
CC(C)=CCC[C@](C)(O[C@@H]1O[C@H](CO[C@@H]2O[C@H](CO)[C@@H](O)[C@H](O)[C@H]2O)[C@@H](O)[C@H](O)[C@H]1O)[C@H]1CC[C@]2(C)[C@@H]1[C@H](O)C[C@@H]1[C@@]3(C)CC[C@H](O[C@@H]4O[C@H](CO)[C@@H](O)[C@H](O)[C@H]4O[C@@H]4O[C@H](CO)[C@@H](O)[C@H](O)[C@H]4O)C(C)(C)[C@@H]3CC[C@]12C |  | Sprague Dawley rats, male, plasma | oral, 86 mg/kg, aqueous solution, with: co-dosed pure ginsenoside mixture | 6900 ± 1910 ng/mL
C=C(c1ccc(C(=O)O)cc1)c1cc2c(cc1C)C(C)(C)CCC2(C)C |  | rat Sprague-Dawley male, plasma | oral, 100 mg/kg, sesame oil | 8520 ng/mL
Cc1cc(C(=O)NC(C)(C)COc2cccc3c2C(N)=NS(=O)(=O)N3)cc(C)n1 |  | Sprague-Dawley rat, both sexes, plasma | oral, diet, 140 mg/kg, day 91, 13-week dietary study | 222 ng/mL
O=C(NC[C@H]1CN(c2ccc(N3CCOCC3=O)cc2)C(=O)O1)c1ccc(Cl)s1 |  | Sprague-Dawley rat, male, plasma | oral, 10 mg/kg, with: naringenin 10 mg/kg/day oral, 2 weeks | 509 ± 152 ng/mL
CC(C)=CCC[C@](C)(O[C@@H]1O[C@H](CO[C@@H]2O[C@H](CO)[C@@H](O)[C@H](O)[C@H]2O)[C@@H](O)[C@H](O)[C@H]1O)[C@H]1CC[C@]2(C)[C@@H]1[C@H](O)C[C@@H]1[C@@]3(C)CC[C@H](O[C@@H]4O[C@H](CO)[C@@H](O)[C@H](O)[C@H]4O[C@@H]4O[C@H](CO)[C@@H](O)[C@H](O)[C@H]4O)C(C)(C)[C@@H]3CC[C@]12C |  | Sprague Dawley rats, plasma | oral, 100 mg/kg, control group sterile water | 658 ± 128 ng/mL
CC(C)=CCC[C@](C)(O[C@@H]1O[C@H](CO)[C@@H](O)[C@H](O)[C@H]1O)[C@H]1CC[C@]2(C)[C@@H]1[C@H](O)C[C@@H]1[C@@]3(C)CC[C@H](O[C@@H]4O[C@H](CO)[C@@H](O)[C@H](O)[C@H]4O[C@@H]4O[C@H](CO)[C@@H](O)[C@H](O)[C@H]4O)C(C)(C)[C@@H]3CC[C@]12C |  | Sprague-Dawley rat, plasma | oral, 2000 mg/kg ginseng extract, diet with NUTRIOSE 10% for 2 weeks | 1220 ± 796 ng/mL
Cn1nnc2c(C(N)=O)ncn2c1=O |  | male athymic rat, intracranial U87 glioma, tumour extracellular fluid | oral, 50 mg/kg, uncorrected microdialysis, with: before cediranib | 410 ± 150 ng/mL
CS(=O)(=O)c1ccc(-c2cnc(N)c(-c3ccc(C(F)(F)F)nc3)c2)cc1 |  | Sprague-Dawley rat, pregnant female, plasma | oral, 30 mg/kg/day, gestation day 6 | 9120 ng/mL
CCc1cc2c(cc1N1CCC(N3CCOCC3)CC1)C(C)(C)c1[nH]c3cc(C#N)ccc3c1C2=O |  | moderate hepatic impairment patients, plasma, total | oral, 300 mg single dose, fed | 111 ng/mL
O=C(/C=C/c1ccc(O)c(O)c1/C=C/c1ccc(O)c(O)c1)O[C@H](Cc1ccc(O)c(O)c1)C(=O)O | UPLC-MS/MS | Wistar rat, microcirculation dysfunction model, plasma | oral, 100 mg/kg Salvia miltiorrhiza stem-leaf extract FT | 10.5 ± 3.59 ng/mL
CN(CCOc1ccc(CC2SC(=O)NC2=O)cc1)c1ccccn1 (stereo not drawn) |  | Sprague-Dawley rat, female, plasma | intraperitoneal, 5 mg/kg of dasatinib, with: dasatinib co-dosed | 11400 ± 3790 ng/mL
CCNCc1cc(Nc2ccnc3cc(Cl)ccc23)ccc1O |  | Wistar rat, plasma | oral, 60 mg/kg amodiaquine, with: myricetin 5 mg/kg i.v. pretreatment | 396 ± 32 ng/mL
O=C(/C=C/c1ccc(O)c2c1[C@H](C(=O)O)[C@@H](c1ccc(O)c(O)c1)O2)O[C@H](Cc1ccc(O)c(O)c1)C(=O)O | UPLC-MS/MS | Wistar rat, microcirculation dysfunction model, plasma | oral, 100 mg/kg Salvia miltiorrhiza stem-leaf extract FS | 22.1 ± 7.33 ng/mL
CCCC[C@H](NC(C)=O)C(=O)N[C@H]1CCC(=O)NC[C@@H](C(=O)N[C@@H](Cc2c[nH]c3ccccc23)C(N)=O)NC(=O)[C@H](CCCNC(=N)N)NC(=O)[C@@H](Cc2ccccc2)NC(=O)[C@H](Cc2c[nH]cn2)NC1=O |  | CD Sprague-Dawley rat, female, plasma | subcutaneous, 1.0 mg/kg/day, day 28 | 695 ng/mL

Excerpt of the above:
Compound | assay | test system | setting | Cmax
Cc1cc(-c2cc(OC(=O)c3ccccc3)ccc2Cl)cc2nnc(Nc3ccc(OCCN4CCCC4)cc3)nc12 |  | Long Evans rat, plasma | topical, 1% | not detected
C=CC(=O)N1CCC[C@@H](n2nc(-c3ccc(Oc4ccccc4)cc3)c3c(N)ncnc32)C1 |  | Sprague-Dawley rat, male, plasma | oral, 55 mg/kg | 413 ng/mL
CC(C)=CCC[C@](C)(O[C@@H]1O[C@H](CO)[C@@H](O)[C@H](O)[C@H]1O)[C@H]1CC[C@]2(C)[C@@H]1[C@H](O)C[C@@H]1[C@@]3(C)CC[C@H](O)C(C)(C)[C@@H]3[C@@H](O[C@@H]3O[C@H](CO)[C@@H](O)[C@H](O)[C@H]3O)C[C@]12C |  | Sprague Dawley rat, male, plasma | oral, 25 mg/kg, in frozen ginseng extract | 500 ± 120 ng/mL
Cc1nc2cccc(OCC(C)(C)C(=O)NC(C)C)c2c(N)c1C(=O)O |  | female Sprague-Dawley rat, plasma | oral gavage, 10 mg/kg, day 7 | 32.7 ± 9.7 ng/mL
NC(=O)c1cnc2[nH]ccc2c1N[C@@H]1[C@@H]2CC3C[C@H]1C[C@@](O)(C3)C2 |  | Japanese, moderate hepatic impairment, plasma | oral, 150 mg single dose, mean | 674 ng/mL
